Assay results from different studies.

Structure (SMILES) | test | system | conditions | quantity | result
COc1ncnn2ccc(-c3cnc4nc(C)n(Cc5nnc([C@@H](C)F)o5)c4c3)c12 |  | human | oral, dose not given, grade 5 | patients with nail discoloration | 0%
CCN(CCO)CCCC(C)Nc1ccnc2cc(Cl)ccc12 (centres unmarked) |  | human, newly diagnosed glioblastoma | oral, 400 mg/dose, dry skin grade 1, with RT and TMZ | patients with adverse event | 14%
C[C@]1(O)C[C@@](N)(c2ccc(-c3nc4n(c3-c3ccccc3)COc3ccncc3-4)cc2)C1 |  | human, advanced or metastatic solid tumours | 24 mg intermittent, phase I dose escalation | patients with Pruritus TEAE | 50%
NC(=O)[C@H]1CCN(c2ncnc(N)c2F)C[C@@H]1N1CCC[C@@H](Nc2cc(Cl)cc(C(F)(F)F)c2)C1=O |  | human patients, blood | oral, dose not given, grade ≥3 | patients with increased bilirubin | 8%
CNC(=O)c1cc(Oc2ccc(NC(=O)Nc3cc(C(C)(C)C)nn3-c3ccc4ncccc4c3)c(F)c2)ccn1 |  | human, trial | oral, dose not given, all doses | patients with related serious Vomiting AE | 2%
Cn1cncc1-c1c(F)cncc1NC(=O)c1c(N)nn2cc(F)cnc12 |  | human patients | oral, 220 mg once daily, 2 weeks on 1 week off | patients grade ≥3 creatinine increase | 17%
O=C(c1ccc(F)c(F)c1Nc1ccc(I)cc1F)N1CC(O)([C@@H]2CCCCN2)C1 |  | human patients | oral, 1 mg/kg, dose expansion cohort | patients with treatment-related SAE | 17%
C[C@@H]1OC(=O)NN=C1c1ccc(-c2ccc(F)cc2)c(C(F)(F)F)c1 | phase I trial, item: Pneumonitis worst grade 3 | human patients | 5 mg loading then 0.25 mg daily | patients with adverse event | 0%
C=CCNc1c(O)cc2c(O)c1C[C@@H](C)C[C@H](OC)[C@H](O)[C@@H](C)/C=C(\C)[C@H](OC(N)=O)[C@@H](OC)/C=C\C=C(/C)C(=O)N2 |  | human unresectable metastatic GIST or sarcoma | intravenous, dose not given | patients with serious adverse events | 37%
CCS(=O)(=O)Nc1ccc(Oc2ccc(F)cc2F)c(-c2cn(C)c(=O)c3[nH]ccc23)c1 | item: Pneumonia | human, relapsed/refractory AML | oral, dose not given, trial, added: alone or with venetoclax | patients with fatal adverse event | 5%
CN[C@@H](C)C(=O)N[C@H]1CN(S(=O)(=O)c2cccc(S(=O)(=O)N3CC[C@H]4CC[C@@H](C(=O)NC(c5ccccc5)c5ccccc5)N4C(=O)[C@@H](NC(=O)[C@H](C)NC)C3)c2)CC[C@H]2CC[C@@H](C(=O)NC(c3ccccc3)c3ccccc3)N2C1=O |  | human, advanced solid tumours | intravenous, 12 mg weekly, CTCAE version 4.0 | patients with any TRAE | 0%
O=C1Nc2cc3[nH]nc(-c4ccncc4)c3cc2CN1Cc1ccccc1 | CTCAE v4.03 | human, relapsed or refractory advanced solid tumours | intravenous, 3.6 mg/kg, pooled schedules | patients with vomiting | 33%
CN(C)C(=O)c1cc2cnc(Nc3ccc(N4CCNCC4)cn3)nc2n1C1CCCC1 | item: Neutropenia, AESI | human, HR+/HER2− advanced breast cancer | oral, dose not given, grade 4, CTCAE v4.03 | patients with adverse event | 11.6%
Cc1cn([C@H]2O[C@@H](CO[P@@](=O)(N[C@@H](C)C(=O)OC(C)C)Oc3ccccc3)[C@H](O)[C@H]2F)c(=O)[nH]c1=O | item: Inflammation | human | 10 mg | patients with TEAE | 0%
CCN1[C@@H](C(=O)NC23CCC(C(=O)O)(CC2)CC3)[C@H](c2cccc(Cl)c2F)[C@]2(C(=O)Nc3cc(Cl)ccc32)C12CCCCC2 | item: any-grade treatment-related elevated ALT | human, advanced solid tumours | oral, dose not given, phase I, all patients | patients with adverse event | 4.8%
Cn1ncc(-c2nc(N[C@H]3CC[C@H](N)CC3)ncc2Cl)c1CC1CC1 | item: treatment-related Hypokalemia | human patients phase I | dose not given | patients with adverse events | 16.1%
CCN(Cc1nc2c(N)nc3cc(-c4cc[nH]n4)ccc3c2[nH]1)C(C)=O | grade 1-2 leukocytosis | human | intratumoral, dose not given | patients with adverse event | 42%
C=CC(=O)Nc1cc(Nc2nccc(Nc3cc(Cl)c(F)cc3C(C)(C)O)n2)c(OC)cc1N1CC[C@@H](N(C)C)C1 |  | human patients | oral, 200 mg, treatment-emergent adverse events | patients with anaemia | 25%
COc1c(C)cnc(Cn2cc(C#CCCOP(=O)(O)O)c3c(Cl)nc(N)nc32)c1C | item: nausea | human, advanced solid tumours | concentration not given, at least possibly drug-related | patients with adverse event | 44%
COc1ccc(-c2c(-c3ccc(C#N)c(F)c3)nc(N3CCC(N)CC3)n(C)c2=O)cc1F | item: pulmonary hemorrhage | human patients | oral, dose not given, dose escalation | patients with serious TEAE | 0%

Repeated from above:
Structure (SMILES) | test | system | conditions | quantity | result
C[C@]1(O)C[C@@](N)(c2ccc(-c3nc4n(c3-c3ccccc3)COc3ccncc3-4)cc2)C1 |  | human, advanced or metastatic solid tumours | 24 mg intermittent, phase I dose escalation | patients with Pruritus TEAE | 50%
NC(=O)[C@H]1CCN(c2ncnc(N)c2F)C[C@@H]1N1CCC[C@@H](Nc2cc(Cl)cc(C(F)(F)F)c2)C1=O |  | human patients, blood | oral, dose not given, grade ≥3 | patients with increased bilirubin | 8%
CNC(=O)c1cc(Oc2ccc(NC(=O)Nc3cc(C(C)(C)C)nn3-c3ccc4ncccc4c3)c(F)c2)ccn1 |  | human, trial | oral, dose not given, all doses | patients with related serious Vomiting AE | 2%
